Assay results gathered from unrelated publications.
Every numbered part comes from another study and shows a few of its results, in no order.

Study 1
Target: Sal-like protein 4, full length isoform A (SALL4, Homo sapiens, UniProt Q9UJQ4, residues 1-1053)
UniProt Q9UJQ4, sequence (whole entry, looked up): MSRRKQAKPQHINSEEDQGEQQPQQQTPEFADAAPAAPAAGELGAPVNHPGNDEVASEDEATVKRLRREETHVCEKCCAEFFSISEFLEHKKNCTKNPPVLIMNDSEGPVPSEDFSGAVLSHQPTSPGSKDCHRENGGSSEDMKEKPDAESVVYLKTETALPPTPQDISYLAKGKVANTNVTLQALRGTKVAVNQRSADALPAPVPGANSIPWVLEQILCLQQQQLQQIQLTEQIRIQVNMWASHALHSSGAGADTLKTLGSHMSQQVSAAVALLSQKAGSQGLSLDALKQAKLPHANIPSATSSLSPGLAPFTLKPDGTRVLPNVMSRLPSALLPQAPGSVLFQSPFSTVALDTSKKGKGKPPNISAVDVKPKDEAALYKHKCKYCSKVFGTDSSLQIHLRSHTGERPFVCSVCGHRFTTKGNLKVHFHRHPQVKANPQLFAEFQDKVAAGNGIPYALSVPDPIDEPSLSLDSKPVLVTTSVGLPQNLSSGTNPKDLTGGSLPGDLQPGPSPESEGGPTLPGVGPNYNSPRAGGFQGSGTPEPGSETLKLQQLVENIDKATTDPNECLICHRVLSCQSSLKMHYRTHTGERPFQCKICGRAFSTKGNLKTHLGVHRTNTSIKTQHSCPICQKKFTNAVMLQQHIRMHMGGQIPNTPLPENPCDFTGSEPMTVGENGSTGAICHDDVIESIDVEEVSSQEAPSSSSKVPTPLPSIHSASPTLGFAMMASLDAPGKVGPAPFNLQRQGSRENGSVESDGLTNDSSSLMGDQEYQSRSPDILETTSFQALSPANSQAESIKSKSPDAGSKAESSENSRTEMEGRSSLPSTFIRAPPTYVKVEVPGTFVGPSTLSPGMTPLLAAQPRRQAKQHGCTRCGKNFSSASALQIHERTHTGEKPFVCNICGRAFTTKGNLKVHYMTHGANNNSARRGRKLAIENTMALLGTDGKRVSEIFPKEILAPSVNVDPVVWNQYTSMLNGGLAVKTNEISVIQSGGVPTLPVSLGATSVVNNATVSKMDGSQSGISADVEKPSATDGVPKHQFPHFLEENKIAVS
Technique: universal PBM
Form: double-stranded DNA, one strand shown
Medium: in vitro
Tested at: 600 nM
Notes: 8-mer, flanks averaged, mean of replicates
Direction: higher = stronger binding
| Oligonucleotide | E-score |
| --- | --- |
| ACCCCGAA | -0.101 |
| CGCCCGAA | -0.213 |
| GCTGCCAA | -0.186 |
| ATACGCTA | 0.0926 |
| GACTACGC | -0.189 |
| CCTAGCCA | -0.0503 |
| GGTGCCAC | -0.364 |

Study 2
Target: Interferon regulatory factor 7, full length, phosphomimetic (IRF7, Homo sapiens, UniProt Q92985, residues 1-503, S471D/S472D/S475D/S476D/S477D/S483D/S484D/S487D)
Technique: protein-binding microarray
Form: double-stranded DNA, one strand shown
Medium: in vitro
Tested at: 2200 nM top
Notes: 60-bp whole probe
With: salmon DNA 0.4 mg/ml
Baseline: random background probes
Direction: higher = stronger binding
Shared flanks, not repeated: GCCTAGCAC … GTGCTAGGTCTTGATTCGCTTGACGCTGCTG
Residues (chain): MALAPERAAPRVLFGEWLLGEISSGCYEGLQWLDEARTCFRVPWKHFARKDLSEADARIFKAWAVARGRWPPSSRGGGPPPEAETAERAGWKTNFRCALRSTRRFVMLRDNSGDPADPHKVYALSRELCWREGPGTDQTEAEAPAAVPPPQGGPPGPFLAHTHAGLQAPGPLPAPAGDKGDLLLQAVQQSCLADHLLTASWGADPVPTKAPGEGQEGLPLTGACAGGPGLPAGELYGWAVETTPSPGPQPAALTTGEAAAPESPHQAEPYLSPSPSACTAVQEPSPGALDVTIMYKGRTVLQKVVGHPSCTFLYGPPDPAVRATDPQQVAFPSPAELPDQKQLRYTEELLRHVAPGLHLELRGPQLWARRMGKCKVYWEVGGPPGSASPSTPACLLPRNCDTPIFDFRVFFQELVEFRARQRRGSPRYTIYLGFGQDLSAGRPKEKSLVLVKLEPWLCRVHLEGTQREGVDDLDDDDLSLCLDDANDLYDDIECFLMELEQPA
| Oligonucleotide | fitted relative affinity |
| --- | --- |
| TTAGGTTTCGGTCTCGGCTA | 6.54 z-score |
| GACGGTTTCCTTCTTCTGAC | 2.83 z-score |
| GACGGACTGGGATTGGGGAC | -0.599 z-score |
| TTAGGTCTCCTTATCCTCTA | 1.09 z-score |
| TTAGAATTGAGTATCGATTA | -0.455 z-score |
| TTACATATGTTTTTCATTTT | 3.12 z-score |
| TTAGGTCTCGGGTTCGGTTA | 1.35 z-score |
| TTGGATCTCAGACTGGATTA | 0.225 z-score |

Study 3
Target: RNA binding protein fox-1 homolog 2, RRM domain, GST-SBP tag (RBFOX2, Homo sapiens, UniProt O43251-10, residues 100-194)
Technique: RNA Bind-n-Seq
Form: RNA
Medium: in vitro
Tested at: 365 nM
Notes: natural RNA segment, single round, ends assumed
Baseline: no-protein control
Direction: higher = stronger binding
Shared flanks, not repeated: GGGAGUUCUACAGUCCGACGAUC … UGGAAUUCUCGGGUGCCAA
| Oligonucleotide | RBNS enrichment (R) |
| --- | --- |
| CAAUGUAGCAACUUCGCUGGCGCCUGCCCCGCACUCCCCGUCCCGUCCACUUCUGAAACUCCUGUUCCUAAUGACAAAGUGGCUAUGUGCAAUGGAUAUAAAUGUACUGU | 0.591 |
| AUUAACUAGAACAGAAUGCUUACAAAGUUUACGUUAAUGUUAUAUAUUAUGUAUAAAUAAAUAUAUUCAUAAUGAGUAUAUGUAAUGGAUAGCACAACGUUUGGAGACGU | 7.97 |
| GGAUGCCACUCUCCCACUUGUAAUUCUCAACGCAAAACAAGUGGAACUGAUUUUACAAAGAUAGAGAAACAGCACAAUCAAUUCCAAAUGGCAUGCGAUGGUCUGCAGGU | 1.29 |
| GUCUUCAUGGUUUGCGUUCUGUACAUUUUCAAGCCCUGGUGAUGAUACGCUCAUAUGCACUUAGGAGUGAGCUUUGUUGUACAGUCUGUCCACGGGGUCGAUGCUGUUAU | 0.662 |
| UAUAGUGAAGAAGAGUCAAGCGUCAGAUAUAUUCUCCCAGUUGAUCCCAAUAUCUGCCCUAAGUGAUUUUUGAGAACAGGGUUUCAUGUAUCCCAGCCAGCCUGGGUCUC | 0.971 |
| AGCACUGUUUUCAUCACAACUUGUUUUCCCAGCAUCAUGUAGUGCAUUUAGUUUUGUCUUUCUCAGGGUAUAGUCAAUAUGCCUGCAGGAGUUUCUAUAGCGAGACAUAG | 0.394 |
| AUCCACCCAGCCCAUUCUCUCUCCUGUCCAACCUAACCCCUUUCCUGCGGGCUUUUCCCCGGUCCCUUGAGACCUCAGCCAUGAGGAGUUGCUGUUUGUUUGACAAAGAA | 0.644 |
| CCUUGCCACUCAGGGUUUUAGUGGGUGCUCCCACUGCUCAGUGUACCCAUGAGCUGUCGUCAUUCACAGAGCCCUGUGCCAGGCCGUGUUCUGUGCCUGCCUGCGGUGAU | 0.425 |

Other studies, line by line
| Substance | target | assay | system | conditions | scale | quantity | value |
| --- | --- | --- | --- | --- | --- | --- | --- |
| PhoQ, residues 284 288 289 292 302 303 AMDMFI | PhoP, residues 12 14 15 18 19 HHYTI (Escherichia coli, UniProt P23836) | Sort-seq, item: YFP reporter | E. coli | PhoQ-PhoP variant library, with: 10 µM Mg2+ | baseline: high Mg2+ state, higher = stronger signaling | fold induction | 2.15 |

Some of these lines once more (study 3):
| Oligonucleotide | RBNS enrichment (R) |
| --- | --- |
| UAUAGUGAAGAAGAGUCAAGCGUCAGAUAUAUUCUCCCAGUUGAUCCCAAUAUCUGCCCUAAGUGAUUUUUGAGAACAGGGUUUCAUGUAUCCCAGCCAGCCUGGGUCUC | 0.971 |
| AGCACUGUUUUCAUCACAACUUGUUUUCCCAGCAUCAUGUAGUGCAUUUAGUUUUGUCUUUCUCAGGGUAUAGUCAAUAUGCCUGCAGGAGUUUCUAUAGCGAGACAUAG | 0.394 |
